Measurements pooled from the literature.
A part holds a random share of what one study measured.
UniProt Q96SB4, sequence (whole entry, looked up): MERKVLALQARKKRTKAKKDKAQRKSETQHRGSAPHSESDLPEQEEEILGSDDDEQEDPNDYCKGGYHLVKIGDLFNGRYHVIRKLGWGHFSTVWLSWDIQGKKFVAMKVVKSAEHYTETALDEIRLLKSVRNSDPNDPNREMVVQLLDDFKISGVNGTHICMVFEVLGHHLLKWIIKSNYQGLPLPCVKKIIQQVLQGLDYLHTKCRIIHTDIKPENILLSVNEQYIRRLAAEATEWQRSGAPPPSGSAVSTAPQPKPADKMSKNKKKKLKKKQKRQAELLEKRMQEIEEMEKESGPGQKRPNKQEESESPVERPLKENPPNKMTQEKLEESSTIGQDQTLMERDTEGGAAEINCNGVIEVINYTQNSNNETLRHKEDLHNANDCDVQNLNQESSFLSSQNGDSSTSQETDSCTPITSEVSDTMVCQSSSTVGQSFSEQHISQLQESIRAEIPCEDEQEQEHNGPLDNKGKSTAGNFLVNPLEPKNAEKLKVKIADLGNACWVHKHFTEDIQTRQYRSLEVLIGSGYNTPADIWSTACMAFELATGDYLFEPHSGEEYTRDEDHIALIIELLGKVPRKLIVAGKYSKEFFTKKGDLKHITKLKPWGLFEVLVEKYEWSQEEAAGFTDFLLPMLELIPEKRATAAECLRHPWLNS
UniProt P36897, sequence (whole entry, looked up): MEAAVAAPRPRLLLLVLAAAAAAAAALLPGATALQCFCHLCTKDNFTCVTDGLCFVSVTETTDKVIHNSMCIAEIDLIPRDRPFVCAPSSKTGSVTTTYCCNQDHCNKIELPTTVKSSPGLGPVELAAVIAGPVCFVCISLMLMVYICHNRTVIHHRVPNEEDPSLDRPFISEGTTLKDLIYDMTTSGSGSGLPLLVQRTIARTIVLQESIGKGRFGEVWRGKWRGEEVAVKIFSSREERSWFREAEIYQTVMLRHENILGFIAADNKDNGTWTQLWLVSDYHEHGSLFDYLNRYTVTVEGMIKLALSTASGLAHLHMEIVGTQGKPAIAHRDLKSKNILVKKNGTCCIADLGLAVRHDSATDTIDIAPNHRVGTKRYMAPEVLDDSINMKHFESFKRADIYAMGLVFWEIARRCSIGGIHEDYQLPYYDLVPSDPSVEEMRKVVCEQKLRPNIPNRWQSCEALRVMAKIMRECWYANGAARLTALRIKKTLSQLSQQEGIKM
UniProt Q16539, sequence (whole entry, looked up): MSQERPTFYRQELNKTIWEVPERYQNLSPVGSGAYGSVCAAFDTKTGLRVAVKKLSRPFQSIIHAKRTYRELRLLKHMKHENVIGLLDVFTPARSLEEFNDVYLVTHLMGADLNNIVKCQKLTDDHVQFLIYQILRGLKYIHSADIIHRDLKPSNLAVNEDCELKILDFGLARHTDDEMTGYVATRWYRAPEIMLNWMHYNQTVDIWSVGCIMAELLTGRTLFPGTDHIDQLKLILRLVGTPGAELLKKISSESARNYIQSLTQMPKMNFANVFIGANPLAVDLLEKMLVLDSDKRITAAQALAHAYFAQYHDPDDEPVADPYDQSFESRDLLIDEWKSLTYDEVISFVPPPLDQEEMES
UniProt Q9H4A3, sequence (whole entry, looked up): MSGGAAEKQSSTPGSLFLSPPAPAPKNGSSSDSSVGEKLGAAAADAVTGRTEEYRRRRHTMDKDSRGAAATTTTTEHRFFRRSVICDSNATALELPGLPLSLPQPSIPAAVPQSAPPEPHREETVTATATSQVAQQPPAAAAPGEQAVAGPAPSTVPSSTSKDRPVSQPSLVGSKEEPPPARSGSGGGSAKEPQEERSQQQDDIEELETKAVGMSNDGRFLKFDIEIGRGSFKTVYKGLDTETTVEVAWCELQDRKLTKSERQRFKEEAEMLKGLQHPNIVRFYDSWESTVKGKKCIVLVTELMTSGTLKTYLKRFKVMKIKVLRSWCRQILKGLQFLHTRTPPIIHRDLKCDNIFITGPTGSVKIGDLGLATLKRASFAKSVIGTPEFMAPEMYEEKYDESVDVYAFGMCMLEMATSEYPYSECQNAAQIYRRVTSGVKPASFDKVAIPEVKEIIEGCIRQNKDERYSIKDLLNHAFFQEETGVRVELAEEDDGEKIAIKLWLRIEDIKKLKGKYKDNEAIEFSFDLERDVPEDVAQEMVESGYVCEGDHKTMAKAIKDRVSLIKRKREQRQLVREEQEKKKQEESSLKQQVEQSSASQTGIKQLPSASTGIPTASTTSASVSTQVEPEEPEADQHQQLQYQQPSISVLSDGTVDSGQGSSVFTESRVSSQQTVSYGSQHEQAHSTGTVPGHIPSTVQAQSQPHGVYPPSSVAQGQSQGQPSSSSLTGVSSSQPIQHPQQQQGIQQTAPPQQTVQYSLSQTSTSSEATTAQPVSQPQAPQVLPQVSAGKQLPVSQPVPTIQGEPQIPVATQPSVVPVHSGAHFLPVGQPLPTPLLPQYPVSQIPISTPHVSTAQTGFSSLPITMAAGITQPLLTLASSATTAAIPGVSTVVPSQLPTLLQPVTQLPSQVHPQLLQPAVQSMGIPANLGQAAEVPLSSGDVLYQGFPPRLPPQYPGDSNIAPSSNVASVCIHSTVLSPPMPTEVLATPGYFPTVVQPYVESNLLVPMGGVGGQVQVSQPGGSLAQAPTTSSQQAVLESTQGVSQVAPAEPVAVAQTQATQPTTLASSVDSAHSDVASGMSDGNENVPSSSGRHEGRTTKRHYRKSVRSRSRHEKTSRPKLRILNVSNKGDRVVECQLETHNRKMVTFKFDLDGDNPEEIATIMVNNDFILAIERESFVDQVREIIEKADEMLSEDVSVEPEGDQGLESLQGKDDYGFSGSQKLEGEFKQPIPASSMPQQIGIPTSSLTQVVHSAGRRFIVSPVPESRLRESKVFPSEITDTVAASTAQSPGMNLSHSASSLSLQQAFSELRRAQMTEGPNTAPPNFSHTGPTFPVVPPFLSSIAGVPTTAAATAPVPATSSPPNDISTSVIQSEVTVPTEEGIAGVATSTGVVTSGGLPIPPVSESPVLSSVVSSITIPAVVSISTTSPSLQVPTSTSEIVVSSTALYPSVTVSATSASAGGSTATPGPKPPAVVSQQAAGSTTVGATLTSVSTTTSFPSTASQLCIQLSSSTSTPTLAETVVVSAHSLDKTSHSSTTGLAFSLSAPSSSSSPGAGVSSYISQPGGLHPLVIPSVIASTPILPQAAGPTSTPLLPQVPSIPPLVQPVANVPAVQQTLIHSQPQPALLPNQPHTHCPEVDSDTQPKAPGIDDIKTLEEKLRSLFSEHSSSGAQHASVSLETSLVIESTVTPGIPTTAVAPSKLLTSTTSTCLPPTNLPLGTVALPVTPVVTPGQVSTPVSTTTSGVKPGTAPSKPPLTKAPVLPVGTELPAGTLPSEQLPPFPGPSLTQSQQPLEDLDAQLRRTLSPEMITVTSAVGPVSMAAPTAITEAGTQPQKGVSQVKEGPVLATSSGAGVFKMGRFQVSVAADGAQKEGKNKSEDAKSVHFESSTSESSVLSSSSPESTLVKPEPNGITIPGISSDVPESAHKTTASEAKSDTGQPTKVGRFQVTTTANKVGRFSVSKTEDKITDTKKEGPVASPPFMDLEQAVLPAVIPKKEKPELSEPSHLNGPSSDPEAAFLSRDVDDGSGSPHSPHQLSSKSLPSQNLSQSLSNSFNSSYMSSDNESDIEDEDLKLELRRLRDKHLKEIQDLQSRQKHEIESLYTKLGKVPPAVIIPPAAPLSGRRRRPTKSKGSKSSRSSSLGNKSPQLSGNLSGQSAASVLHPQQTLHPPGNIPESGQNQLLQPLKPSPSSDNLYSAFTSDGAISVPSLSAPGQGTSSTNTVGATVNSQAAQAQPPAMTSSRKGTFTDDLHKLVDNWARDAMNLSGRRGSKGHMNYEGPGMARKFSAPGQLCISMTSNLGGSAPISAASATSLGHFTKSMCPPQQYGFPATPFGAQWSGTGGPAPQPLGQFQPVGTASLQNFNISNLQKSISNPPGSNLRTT
UniProt Q9BRS2, sequence (whole entry, looked up): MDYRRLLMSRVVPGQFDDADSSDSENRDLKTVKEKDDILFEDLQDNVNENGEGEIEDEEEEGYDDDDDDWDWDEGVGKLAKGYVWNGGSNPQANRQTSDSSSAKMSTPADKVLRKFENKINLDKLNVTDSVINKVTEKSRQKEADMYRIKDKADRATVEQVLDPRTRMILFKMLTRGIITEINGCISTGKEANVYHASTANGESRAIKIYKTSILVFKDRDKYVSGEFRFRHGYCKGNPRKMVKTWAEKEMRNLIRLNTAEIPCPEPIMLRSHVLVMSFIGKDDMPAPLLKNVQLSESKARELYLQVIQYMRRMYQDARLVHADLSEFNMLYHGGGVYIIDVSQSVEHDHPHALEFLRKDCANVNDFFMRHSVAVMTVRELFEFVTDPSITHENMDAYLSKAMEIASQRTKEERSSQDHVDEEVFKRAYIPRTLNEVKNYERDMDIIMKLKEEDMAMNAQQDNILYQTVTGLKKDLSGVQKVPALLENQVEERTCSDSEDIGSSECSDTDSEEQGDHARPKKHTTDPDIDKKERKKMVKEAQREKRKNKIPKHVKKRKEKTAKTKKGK

Set 1
SMILES: COc1cc(C(=O)N2CCC(N3CCN(C)CC3)CC2)ccc1Nc1ncc2c(n1)N(C)c1ccccc1C(=O)N2C
Method: KINOMEscan
Tested at: 10 µM
Relative to: DMSO control
Direction: lower = stronger binding
TAOK2 — binding: 65%.
PAK4 — binding: 94%.
The binding was 100% (PLK2).
It gave 96% for binding (PAK7).
It gave 100% for binding (ERK8).
PIK3C2G — binding: 100%.
SIK2 — binding: 98%.
It gave 73% for binding (CAMKK1).
CDK11 — binding: 100%.
The binding was 13% (ALK).
The binding was 81% (CSNK1D).
The binding was 77% (SRMS).
It gave 100% for binding (MELK).
MLK2 — binding: 100%.

Set 2
Target: Receptor-interacting serine/threonine-protein kinase 2 (RIPK2, Homo sapiens, UniProt O43353)
UniProt O43353, sequence (whole entry, looked up): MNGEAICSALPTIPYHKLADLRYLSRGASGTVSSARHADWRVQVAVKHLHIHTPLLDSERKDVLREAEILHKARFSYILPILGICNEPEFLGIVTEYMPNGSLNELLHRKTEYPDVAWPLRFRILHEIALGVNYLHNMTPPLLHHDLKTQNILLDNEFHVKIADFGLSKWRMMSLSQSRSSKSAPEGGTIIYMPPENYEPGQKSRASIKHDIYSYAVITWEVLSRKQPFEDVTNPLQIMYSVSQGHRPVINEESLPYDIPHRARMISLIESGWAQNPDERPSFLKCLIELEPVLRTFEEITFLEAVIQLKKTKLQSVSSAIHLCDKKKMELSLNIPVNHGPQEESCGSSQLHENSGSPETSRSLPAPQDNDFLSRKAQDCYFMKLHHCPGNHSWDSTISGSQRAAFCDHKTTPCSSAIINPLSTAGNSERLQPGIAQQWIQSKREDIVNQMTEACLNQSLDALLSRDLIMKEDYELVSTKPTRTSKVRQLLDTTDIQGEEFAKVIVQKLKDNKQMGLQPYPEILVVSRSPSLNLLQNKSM
Effect on: enzyme activity
Mode: inhibitor
Tested at: 0.5 µM
Relative to: control
With `Nc1nc(Nc2ccc(S(N)(=O)=O)cc2)nn1C(=S)Nc1c(F)cccc1F` the remaining activity was 19.7%.
The remaining activity of `c1cc(-c2cnn3cc(-c4ccc(OCCN5CCCCC5)cc4)cnc23)ccn1` is reported as 15.9%.
The remaining activity of `CC(C)(C)c1nc2c3cc[nH]c(=O)c3c3cc(F)ccc3c2[nH]1` is reported as 34.6%.
With `COc1cc2c(N3CCN(C(=O)Nc4ccc(OC(C)C)cc4)CC3)ncnc2cc1OCCCN1CCCCC1` the remaining activity was 110%.
With `NC(=O)c1ccc(-c2nc(-c3ccc4c(c3)OCCO4)c(-c3ccccn3)[nH]2)cc1` the remaining activity was 48.3%.
For `CNc1cc2c(Nc3cccc(Br)c3)ncnc2cn1`, the remaining activity was 69.2%.
With `CCN(CC)CCCCN1c2ccccc2Oc2ccc(Cl)cc21` the remaining activity was 89.7%.
`O=C1NC(=O)/C(=C/c2ccc3c(c2)OC(F)(F)O3)S1` has a remaining activity of 88.2%.
With `NC(=O)c1cccc(-c2cc(Nc3ccc(OC(F)(F)F)cc3)ncn2)c1` the remaining activity was 89.3%.
`CC(C)n1cnc2c(Nc3cccc(Cl)c3)nc(NCCO)nc21` gave a remaining activity of 84.3%.
`Clc1ccc(Nc2nnc(Cc3ccncc3)c3ccccc23)cc1` gave a remaining activity of 111%.

Set 3
Compound: C[C@@H](c1cccc(C#N)c1)n1cc(Cl)cc(C(N)=O)c1=N
Method: competition with immobilised ligand
Tested at: 1 µM
It gave 100% for remaining binding (SRPK1 (Homo sapiens, UniProt Q96SB4); cell-free assay).
The remaining binding was 97% (WNK1 (Homo sapiens, UniProt Q9H4A3); cell-free assay).
For CDKL2 (Homo sapiens, UniProt Q92772); binding: remaining binding read 100%.
The remaining binding was 100% (MAPK14 (Homo sapiens, UniProt Q16539); cell-free assay).
The remaining binding was 81% (TGFBR1 (Homo sapiens, UniProt P36897); cell-free assay).
It gave 85% for remaining binding (VRK2 (Homo sapiens, UniProt Q86Y07); cell-free assay).
It gave 99% for remaining binding (MET (Homo sapiens, UniProt P08581, M1250T); cell-free assay).
It gave 98% for remaining binding (FLT3 (Homo sapiens, UniProt P36888, ITD); cell-free assay).
For RIOK1 (Homo sapiens, UniProt Q9BRS2); cell-free assay: remaining binding read 86%.
STK36 (Homo sapiens, UniProt Q9NRP7); cell-free assay — remaining binding: 94%.
For NEK9 (Homo sapiens, UniProt Q8TD19); cell-free assay: remaining binding read 97%.
PIK3CA (Homo sapiens, UniProt P42336, E545K); cell-free assay — remaining binding: 88%.
MKNK1 (Homo sapiens, UniProt Q9BUB5); cell-free assay — remaining binding: 86%.
ERBB4 (Homo sapiens, UniProt Q15303); cell-free assay — remaining binding: 100%.
The remaining binding was 94% (EPHB1 (Homo sapiens, UniProt P54762); cell-free assay).

Set 4
Organism: Plasmodium berghei
Mode: inhibitor
Cells: Huh-7
Strain: GFP-expressing, liver stage
Tested at: 10 µM
Time: 24 h
Relative to: untreated control
`Cc1ccc(S(=O)(=O)NC(=O)NN2CCCCCC2)cc1` gave an infection rate of 75.7%.
`CC1(C)NC(=O)N(c2ccc([N+](=O)[O-])c(C(F)(F)F)c2)C1=O` gave an infection rate of 102%.
`CCN1CCCC(OC(=O)C(c2ccccc2)c2ccccc2)C1` (centres unmarked) gave an infection rate of 71.2%.
The infection rate of `CCN(CC)CCCC(C)Nc1c2ccc(Cl)cc2nc2ccc(OC)cc12` (centres unmarked) is reported as 381%.
For `O=C1CN(/N=C/c2ccc([N+](=O)[O-])o2)C(=O)N1`, the infection rate was 66.6%.
The infection rate of `NC[C@H]1O[C@H](O[C@H]2[C@H](O)[C@@H](O[C@H]3O[C@H](CO)[C@@H](O)[C@H](N)[C@H]3O)[C@H](N)C[C@@H]2N)[C@H](N)C[C@@H]1O` is reported as 91.5%.
With `O=C1NS(=O)(=O)c2ccccc21` the infection rate was 108%.
`O=C(O)CCC(=O)Nc1ccc(S(=O)(=O)Nc2nccs2)cc1` gave an infection rate of 119%.
The infection rate of `NC[C@@H]1O[C@H](O[C@H]2[C@@H](O)[C@H](O[C@@H]3[C@@H](O)[C@H](N)C[C@H](N)[C@H]3O[C@H]3O[C@H](CO)[C@@H](O)[C@H](O)[C@H]3N)O[C@@H]2CO)[C@H](N)[C@@H](O)[C@@H]1O` is reported as 102%.
With `C[C@]12C=CC(=O)C=C1CC[C@H]1[C@@H]3C[C@@H](O)[C@](O)(C(=O)CO)[C@@]3(C)C[C@H](O)[C@@]12F` the infection rate was 116%.
`Fc1ccc([C@@H]2CCNC[C@H]2COc2ccc3c(c2)OCO3)cc1` gave an infection rate of 94.7%.
The infection rate of `CC(=O)CCCCn1c(=O)c2c(ncn2C)n(C)c1=O` is reported as 88.8%.
The infection rate of `CC(C)(C)NCC(O)c1cc(O)cc(O)c1` (centres unmarked) is reported as 100%.

A few entries again (set 4):
`CC1(C)NC(=O)N(c2ccc([N+](=O)[O-])c(C(F)(F)F)c2)C1=O` gave an infection rate of 102%.
The infection rate of `CCN(CC)CCCC(C)Nc1c2ccc(Cl)cc2nc2ccc(OC)cc12` (centres unmarked) is reported as 381%.
`CCN1CCCC(OC(=O)C(c2ccccc2)c2ccccc2)C1` (centres unmarked) gave an infection rate of 71.2%.
